Measurements of several laboratories.
Each line is one published result; not all experiments were run side by side. Several values in a cell are separate wells, animals, samples, runs or records. ± marks the error that the study gave.
U2AF2: U2AF2 148-342 (Homo sapiens, UniProt P26368)
UniProt P26368, sequence (whole entry, looked up): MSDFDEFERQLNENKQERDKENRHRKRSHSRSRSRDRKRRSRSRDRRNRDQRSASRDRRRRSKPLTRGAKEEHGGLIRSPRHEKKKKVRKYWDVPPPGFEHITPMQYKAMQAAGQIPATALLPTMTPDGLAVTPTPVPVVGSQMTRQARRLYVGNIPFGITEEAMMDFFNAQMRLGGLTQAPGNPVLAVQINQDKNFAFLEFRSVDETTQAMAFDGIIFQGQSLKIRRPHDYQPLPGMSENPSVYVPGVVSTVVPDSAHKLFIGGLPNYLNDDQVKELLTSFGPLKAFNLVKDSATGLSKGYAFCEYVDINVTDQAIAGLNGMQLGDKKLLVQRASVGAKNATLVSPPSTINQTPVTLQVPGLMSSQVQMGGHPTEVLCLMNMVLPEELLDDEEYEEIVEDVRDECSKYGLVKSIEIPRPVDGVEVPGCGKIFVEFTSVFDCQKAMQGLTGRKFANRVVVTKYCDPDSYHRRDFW
B1: human semenogelin-2; sequence looked up; chain QKGGSKGQLPSGSSQFPHGQKGQHYFGQKDQQHTKSKGSFSIQHTYHVDINDHDWTRKSQQYDLNALHKATKSKQHLGGSQQLLNYKQEGRDHDKSKGHFHMIVIHHKGGQAHHGTQNPSQDQGNSPSGKGLSSQCSNTEKRLWVHGLSKEQASASGAQKGRTQGGSQSSYVLQTEELVVNKQQRETKNSHQNKGHYQNVVDVREEHSSKLQTSLHPAHQDRLQHGPKDIFTTQDELLVYNKNQHQTKNLSQDQEHGRKAHKISYPSSRTEERQLHHGEKSVQKDVSKGSISIQTEEKIHGKSQNQVTIHSQDQEHGHKENKISYQSSSTEERHLNCGEKGIQKGVSKGSISIQTEEQIHGKSQNQVRIPSQAQEYGHKENKISYQSSSTEERRLNSGEKDVQKGVSKGSISIQTEEKIHGKSQNQVTIPSQDQEHGHKENKMSYQSSSTEERRLNYGGKSTQKDVSQSSISFQIEKLVEGKSQIQTPNPNQDQWSGQNAKGKSGQSADSKQDLLSHEQKGRYKQESSESHNIVITEHEVAQDDHLTQQYNEDRNPIST
B2: human hnRNP Q; sequence looked up; chain ATEHVNGNGTEEPMDTTSAVIHSENFQTLLDAGLPQKVAEKLDEIYVAGLVAHSDLDERAIEALKEFNEDGALAVLQQFKDSDLSHVQNKSAFLCGVMKTYRQREKQGTKVADSSKGPDEAKIKALLERTGYTLDVTTGQRKYGGPPPDSVYSGQQPSVGTEIFVGKIPRDLFEDELVPLFEKAGPIWDLRLMMDPLTGLNRGYAFVTFCTKEAAQEAVKLYNNHEIRSGKHIGVCISVANNRLFVGSIPKSKTKEQILEEFSKVTEGLTDVILYHQPDDKKKNRGFCFLEYEDHKTAAQARRRLMSGKVKVWGNVGTVEWADPIEDPDPEVMAKVKVLFVRNLANTVTEEILEKAFSQFGKLERVKKLKDYAFIHFDERDGAVKAMEEMNGKDLEGENIEIVFAKPPDQKRKERKAQRQAAKNQMYDDYYYYGPPHMPPPTRGRGRGGRGGYGYPPDYYGYEDYYDYYGYDYHNYRGGYEDPYYGYEDFQVGARGRGGRGARGAAPSRGRGAAPPRGRAGYSQRGGPGSARGVRGARGGAQQQRGRGVRGARGGRGGNVGGKRKADGYNQPDSKRRQTNNQNWGSQPIAQQPLQGGDHSGNYGYKSENQEFYQDTFGQQWK
B3: phosphoglycerate mutase 1, human; sequence looked up; chain AAYKLVLIRHGESAWNLENRFSGWYDADLSPAGHEEAKRGGQALRDAGYEFDICFTSVQKRAIRTLWTVLDAIDQMWLPVVRTWRLNERHYGGLTGLNKAETAAKHGEAQVKIWRRSYDVPPPPMEPDHPFYSNISKDRRYADLTEDQLPSCESLKDTIARALPFWNEEIVPQIKEGKRVLIAAHGNSLRGIVKHLEGLSEEAIMELNLPTGIPIVYELDKNLKPIKPMQFLGDEETVRKAMEAVAAQGKAKK

Substance | target or system | assay | test system | conditions | how to read | endpoint | result
CUAAUUUUU (ssRNA) | U2AF2 | sequencing of bound RNA | RNA | motif only |  | Kd | 17 µM
B1 (human semenogelin-2) | PP6C (human) | co-immunoprecipitation, IP-MS | CYB5R4 knockout cells | concentration not given | relative to: CYB5R4 knockout over parental | log2 fold change | 3.15
difelikefalin |  |  | Japanese haemodialysis patients with pruritus | intravenous, 0.25 µg/kg, 8 weeks |  | PGIC very much improved | 19.7%
human WDHD1 | PP6C (human) | co-immunoprecipitation, IP-MS | CYB5R4 knockout cells | concentration not given | relative to: CYB5R4 knockout over parental | log2 fold change | 0.47
colistin | Pseudomonas aeruginosa |  | clinical isolate RKI 48/09 |  |  | MIC | ≤ 0.5 µg/mL
human AHSA1 | PP6C (human) | co-immunoprecipitation, IP-MS | CYB5R4 knockout cells | concentration not given | relative to: CYB5R4 knockout over parental | log2 fold change | 1.27
milbemycin oxime | Saccharomyces cerevisiae | cell growth | Pdr5 deleted, Cdr1 overexpressed | 2^-5.381 µg/mL, with: fluconazole 10 µg/mL |  | OD600 | 0.064 and 0.084 and 0.059
MTVCNASQRQAHAQATAVSL | HCC78 | phage binding | peptide |  | relative to: targeting over control phage | selectivity ratio | 0.84 ± 0.39
CAUUUUCUU (ssRNA) | U2AF2 | sequencing of bound RNA | RNA | motif only |  | Kd | 1.64 µM
GSGAGHETIV | construct, MBP fusion, human SCRIB, PDZ 3-4 | automated holdup | peptide, crude extract | concentration not given, uncorrected, unit not given | relative to: biotin control resin, higher = stronger binding | binding intensity | 0.333
heparin sodium |  |  | human | intravenous infusion, 8 IU/kg/h, day 1 to 6 | relative to: baseline | AUEC of ACT ratio | 136
human desmoplakin | CYB5R4 knockout human cells | PP4 interaction, 3xFLAG-PP4C IP-MS |  | concentration not given | relative to: CYB5R4 KO over parental | log2 fold change | 0.72
GSGAGICTIV | construct, MBP fusion, human SCRIB, PDZ 3-4 | automated holdup | peptide, crude extract | concentration not given, uncorrected, unit not given | relative to: biotin control resin, higher = stronger binding | binding intensity | 0.044
B2 (human hnRNP Q) | CYB5R4 knockout human cells | PP4 interaction, 3xFLAG-PP4C IP-MS |  | concentration not given | relative to: CYB5R4 KO over parental | log2 fold change | 0.15
Peginesatide | UT7/EPO | tyrosine phosphorylation, LC-MS/MS phosphoproteomics, GluC, refers to: PLCG1 tyrosine 783 |  | 10 nM, 15 min, with: 10 U/mL EPO | relative to: vehicle | phosphorylation level | 31 fold
cotadutide |  | metabolomics, refers to: hepatic isoleucine | ob/ob mice on AMLN diet, NASH model, liver | dose not given |  | metabolite level | 0.99 ± 0.06 scaled intensity
NPDALPETLV | construct, MBP fusion, human SCRIB, PDZ 3-4 | automated holdup | peptide, crude extract | concentration not given, corrected by standard peak, unit not given | relative to: biotin control resin, higher = stronger binding | binding intensity | 0.241
epoetin alfa | UT7/EPO | RT-qPCR, refers to: THBS1 |  | concentration not given, 90 min, normalized to HPRT1 | relative to: vehicle | mRNA level | 3 fold
B3 | CYB5R4 knockout human cells | PP6 interaction, 3xFLAG-PP6C IP-MS |  | concentration not given | relative to: CYB5R4 KO over parental | log2 fold change | 0.96
PKRSFIESNV | construct, MBP fusion, human SCRIB, PDZ 3-4 | automated holdup | peptide, crude extract | concentration not given, uncorrected, unit not given | relative to: biotin control resin, higher = stronger binding | binding intensity | 0.732

Repeated from above:
Substance | target or system | assay | test system | conditions | how to read | endpoint | result
human AHSA1 | PP6C (human) | co-immunoprecipitation, IP-MS | CYB5R4 knockout cells | concentration not given | relative to: CYB5R4 knockout over parental | log2 fold change | 1.27
milbemycin oxime | Saccharomyces cerevisiae | cell growth | Pdr5 deleted, Cdr1 overexpressed | 2^-5.381 µg/mL, with: fluconazole 10 µg/mL |  | OD600 | 0.064 and 0.084 and 0.059
MTVCNASQRQAHAQATAVSL | HCC78 | phage binding | peptide |  | relative to: targeting over control phage | selectivity ratio | 0.84 ± 0.39
